{"data": "Results pooled from the literature", "SLC10A2": "Ileal sodium/bile acid cotransporter (SLC10A2, Homo sapiens, UniProt Q12908)", "CHRM5": "Muscarinic acetylcholine receptor M5 (CHRM5, Homo sapiens, UniProt P08912)", "CASP3": "Caspase-3 (CASP3, Homo sapiens, UniProt P42574)", "note": "Lines come from different studies, so protocols differ. Numbers after ± are the reported error.", "sequence of UniProt Q12908 (whole entry, looked up)": "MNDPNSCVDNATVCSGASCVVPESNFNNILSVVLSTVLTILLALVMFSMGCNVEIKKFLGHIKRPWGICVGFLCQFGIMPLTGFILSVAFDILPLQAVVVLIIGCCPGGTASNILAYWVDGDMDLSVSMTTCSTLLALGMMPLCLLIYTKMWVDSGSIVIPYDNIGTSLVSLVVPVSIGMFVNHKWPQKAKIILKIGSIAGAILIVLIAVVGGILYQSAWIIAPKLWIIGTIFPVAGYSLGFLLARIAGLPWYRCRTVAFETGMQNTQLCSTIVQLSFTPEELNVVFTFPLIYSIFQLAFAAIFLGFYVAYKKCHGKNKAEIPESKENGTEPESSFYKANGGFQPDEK", "sequence of UniProt P08912 (whole entry, looked up)": "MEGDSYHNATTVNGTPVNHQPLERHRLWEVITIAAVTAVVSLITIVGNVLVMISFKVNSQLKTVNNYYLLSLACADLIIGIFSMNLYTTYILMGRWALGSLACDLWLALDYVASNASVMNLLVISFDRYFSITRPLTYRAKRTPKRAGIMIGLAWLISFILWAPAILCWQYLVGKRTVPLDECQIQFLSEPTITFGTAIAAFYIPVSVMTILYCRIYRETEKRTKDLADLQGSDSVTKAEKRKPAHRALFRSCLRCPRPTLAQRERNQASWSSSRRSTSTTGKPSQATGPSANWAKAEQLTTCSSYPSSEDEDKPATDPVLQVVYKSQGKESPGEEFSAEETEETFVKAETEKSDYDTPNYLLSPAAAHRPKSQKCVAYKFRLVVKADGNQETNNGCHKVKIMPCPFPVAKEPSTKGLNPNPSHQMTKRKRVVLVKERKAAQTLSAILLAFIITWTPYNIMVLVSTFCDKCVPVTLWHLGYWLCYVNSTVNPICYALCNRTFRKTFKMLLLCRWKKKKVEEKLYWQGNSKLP", "sequence of UniProt P42574 (whole entry, looked up)": "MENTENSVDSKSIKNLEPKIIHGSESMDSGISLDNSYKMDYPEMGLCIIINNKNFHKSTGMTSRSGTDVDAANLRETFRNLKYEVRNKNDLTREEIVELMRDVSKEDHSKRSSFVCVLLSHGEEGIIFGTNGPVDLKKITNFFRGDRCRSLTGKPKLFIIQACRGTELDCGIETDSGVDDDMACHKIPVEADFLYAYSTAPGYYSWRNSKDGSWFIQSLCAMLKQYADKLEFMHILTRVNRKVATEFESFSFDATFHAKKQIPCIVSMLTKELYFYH", "sequence of UniProt P20309 (whole entry, looked up)": "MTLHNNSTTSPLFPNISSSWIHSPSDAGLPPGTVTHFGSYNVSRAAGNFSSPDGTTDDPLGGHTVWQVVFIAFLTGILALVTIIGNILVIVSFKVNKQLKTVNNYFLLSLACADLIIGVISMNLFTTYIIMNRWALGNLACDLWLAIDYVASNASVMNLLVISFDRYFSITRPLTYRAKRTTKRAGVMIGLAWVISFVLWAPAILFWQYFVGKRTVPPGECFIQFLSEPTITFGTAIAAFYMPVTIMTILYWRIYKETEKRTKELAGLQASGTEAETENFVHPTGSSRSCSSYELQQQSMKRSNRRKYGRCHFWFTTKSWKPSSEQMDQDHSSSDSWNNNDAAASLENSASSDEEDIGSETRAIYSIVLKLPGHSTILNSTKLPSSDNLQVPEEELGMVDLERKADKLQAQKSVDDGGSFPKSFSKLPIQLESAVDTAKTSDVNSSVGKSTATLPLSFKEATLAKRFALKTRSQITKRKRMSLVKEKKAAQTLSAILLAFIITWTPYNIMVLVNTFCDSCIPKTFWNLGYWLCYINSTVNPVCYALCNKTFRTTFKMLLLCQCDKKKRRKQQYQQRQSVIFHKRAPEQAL", "sequence of UniProt P15144 (whole entry, looked up)": "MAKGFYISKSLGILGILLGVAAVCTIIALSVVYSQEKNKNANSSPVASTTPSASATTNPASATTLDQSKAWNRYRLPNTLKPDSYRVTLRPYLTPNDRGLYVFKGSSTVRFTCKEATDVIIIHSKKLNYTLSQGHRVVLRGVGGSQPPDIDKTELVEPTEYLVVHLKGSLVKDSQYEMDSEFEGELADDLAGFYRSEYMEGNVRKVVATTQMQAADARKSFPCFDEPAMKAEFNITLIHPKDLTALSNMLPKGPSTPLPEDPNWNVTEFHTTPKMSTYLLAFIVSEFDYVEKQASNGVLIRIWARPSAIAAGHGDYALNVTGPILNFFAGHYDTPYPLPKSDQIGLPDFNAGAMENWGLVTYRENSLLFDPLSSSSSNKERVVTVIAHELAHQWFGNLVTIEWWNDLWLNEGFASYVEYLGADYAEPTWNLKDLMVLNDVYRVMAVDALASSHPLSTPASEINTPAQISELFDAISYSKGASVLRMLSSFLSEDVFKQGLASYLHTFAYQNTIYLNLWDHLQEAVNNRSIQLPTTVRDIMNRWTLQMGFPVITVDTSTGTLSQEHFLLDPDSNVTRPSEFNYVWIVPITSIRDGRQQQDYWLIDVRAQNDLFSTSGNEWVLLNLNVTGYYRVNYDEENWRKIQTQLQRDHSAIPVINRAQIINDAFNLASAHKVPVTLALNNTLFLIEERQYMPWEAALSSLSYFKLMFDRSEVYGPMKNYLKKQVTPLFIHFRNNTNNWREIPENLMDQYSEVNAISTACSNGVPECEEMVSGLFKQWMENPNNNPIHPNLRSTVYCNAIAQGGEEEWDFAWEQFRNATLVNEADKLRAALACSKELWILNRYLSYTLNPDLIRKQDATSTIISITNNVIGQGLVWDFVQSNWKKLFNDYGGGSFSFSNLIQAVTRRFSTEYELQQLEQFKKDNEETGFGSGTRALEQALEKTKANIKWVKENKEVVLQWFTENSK", "sequence of UniProt P27338 (whole entry, looked up)": "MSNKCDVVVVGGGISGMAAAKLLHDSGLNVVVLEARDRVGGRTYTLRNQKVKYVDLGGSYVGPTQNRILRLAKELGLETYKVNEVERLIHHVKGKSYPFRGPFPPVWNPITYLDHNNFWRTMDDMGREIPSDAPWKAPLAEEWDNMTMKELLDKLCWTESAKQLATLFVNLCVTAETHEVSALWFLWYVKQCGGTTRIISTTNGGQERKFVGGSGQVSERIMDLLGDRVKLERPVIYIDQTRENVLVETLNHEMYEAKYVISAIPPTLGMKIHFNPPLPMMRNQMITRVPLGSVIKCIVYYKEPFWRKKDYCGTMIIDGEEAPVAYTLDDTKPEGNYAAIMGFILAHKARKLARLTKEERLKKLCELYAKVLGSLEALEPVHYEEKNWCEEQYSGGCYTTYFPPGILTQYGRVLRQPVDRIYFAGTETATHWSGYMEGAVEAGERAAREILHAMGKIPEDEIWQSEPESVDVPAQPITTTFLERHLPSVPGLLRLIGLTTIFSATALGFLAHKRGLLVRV", "sequence of UniProt P18031 (whole entry, looked up)": "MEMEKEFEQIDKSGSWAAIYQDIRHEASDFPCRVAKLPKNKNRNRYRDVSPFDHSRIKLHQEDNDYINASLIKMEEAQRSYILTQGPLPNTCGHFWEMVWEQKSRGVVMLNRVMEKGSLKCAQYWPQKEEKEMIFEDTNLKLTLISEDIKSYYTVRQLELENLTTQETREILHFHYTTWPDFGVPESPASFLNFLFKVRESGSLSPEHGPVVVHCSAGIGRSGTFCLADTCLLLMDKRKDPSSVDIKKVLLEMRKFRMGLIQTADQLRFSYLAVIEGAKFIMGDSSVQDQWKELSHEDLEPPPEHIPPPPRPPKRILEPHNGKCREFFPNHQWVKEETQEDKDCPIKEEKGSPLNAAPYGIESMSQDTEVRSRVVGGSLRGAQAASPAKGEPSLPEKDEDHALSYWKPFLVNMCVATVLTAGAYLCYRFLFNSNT", "sequence of UniProt P11229 (whole entry, looked up)": "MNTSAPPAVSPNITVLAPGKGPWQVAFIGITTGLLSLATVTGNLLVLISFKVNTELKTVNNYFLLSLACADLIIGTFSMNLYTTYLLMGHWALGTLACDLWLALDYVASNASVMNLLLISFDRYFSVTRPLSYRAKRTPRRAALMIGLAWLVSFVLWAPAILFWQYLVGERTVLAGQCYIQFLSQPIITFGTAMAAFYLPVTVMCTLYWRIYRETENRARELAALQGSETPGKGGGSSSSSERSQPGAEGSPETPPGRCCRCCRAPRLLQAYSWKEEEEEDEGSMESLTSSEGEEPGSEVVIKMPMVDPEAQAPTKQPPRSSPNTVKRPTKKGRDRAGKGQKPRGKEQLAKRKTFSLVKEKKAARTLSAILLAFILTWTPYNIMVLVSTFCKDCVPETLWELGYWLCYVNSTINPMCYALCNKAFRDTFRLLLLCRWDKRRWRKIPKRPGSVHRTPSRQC", "sequence of UniProt P61169 (whole entry, looked up)": "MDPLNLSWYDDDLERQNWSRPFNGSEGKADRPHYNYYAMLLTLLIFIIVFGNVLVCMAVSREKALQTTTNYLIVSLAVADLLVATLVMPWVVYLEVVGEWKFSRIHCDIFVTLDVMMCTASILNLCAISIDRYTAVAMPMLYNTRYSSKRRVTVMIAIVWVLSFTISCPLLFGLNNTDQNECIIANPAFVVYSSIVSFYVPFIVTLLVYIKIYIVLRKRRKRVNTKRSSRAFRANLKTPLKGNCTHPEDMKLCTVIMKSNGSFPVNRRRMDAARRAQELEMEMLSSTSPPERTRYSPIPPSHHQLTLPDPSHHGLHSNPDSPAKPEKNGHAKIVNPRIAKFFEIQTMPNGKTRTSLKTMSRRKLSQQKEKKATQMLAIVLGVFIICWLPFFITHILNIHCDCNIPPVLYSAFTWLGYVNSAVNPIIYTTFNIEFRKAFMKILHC"}
{"SMILES": "COC(=O)[C@H](CCCCN(C)CCCCN(O)C(=O)/C=C/C(=O)O)NC(=O)OCc1ccccc1", "target": "Lysine-specific demethylase 2A (KDM2A, Homo sapiens, UniProt Q9Y2K7)", "test": "ligand displacement, FP", "Ki": "0.12 µM"}
{"SMILES": "C[C@H](CCC(=O)O)[C@H]1CC[C@H]2[C@@H]3[C@H](O)C[C@H]4C[C@H](OC(=O)CCC(=O)O)CC[C@]4(C)[C@H]3CC[C@]12C", "target": "SLC10A2", "test": "taurocholate uptake, inhibitor", "system": "MDCK expressing SLC10A2", "Ki": "25 to 100 µM"}
{"SMILES": "CC(CCC(=O)NC(CCC(=O)Nc1cccc(N)n1)C(=O)O)C1CCC2C3C(O)CC4CC(O)CCC4(C)C3CCC12C (stereo not drawn)", "target": "SLC10A2", "test": "taurocholate uptake, inhibitor", "system": "ASBT-MDCK", "setting": "10 min, added: taurocholate 2.5 µM", "Ki": "13.2 µM"}
{"SMILES": "CCC(=O)NCc1cc(C(=O)NCCN2CCN(CCCCC3CCN(CC(=O)N4c5ccccc5NC(=O)c5ccccc54)CC3)CC2)cc(C(=O)NCCN2CCN(CCOC(=O)C3c4ccccc4Oc4ccccc43)CC2)c1", "target": "Muscarinic acetylcholine receptor M1 (CHRM1, Homo sapiens, UniProt P11229)", "test": "ligand displacement, radioligand", "Ki": "0.00309 µM"}
{"SMILES": "COc1ccc(CCCN[C@H]2CCC[C@@H]2CN[C@@H]2CCC[C@H]2CNCCCCN[C@@H]2CCC[C@H]2CN)cc1", "target": "Amine oxidase [flavin-containing] B (MAOB, Homo sapiens, UniProt P27338)", "test": "enzyme activity, inhibitor", "Ki": "> 500 µM"}
{"SMILES": "CC(C)=CCc1c(O)cc(O)c2c1O[C@H](c1ccccc1)[C@@H](O)C2=O", "target": "Tyrosine-protein phosphatase non-receptor type 1 (PTPN1, Homo sapiens, UniProt P18031)", "test": "enzyme activity, inhibitor", "Ki": "1.61 µM"}
{"SMILES": "O=C1Nc2ccccc2N(C(=O)CN2CCC(CCCCN3CCN(CCCCOC(=O)C4c5ccccc5Oc5ccccc54)CC3)CC2)c2ccccc21", "target": "CHRM5", "test": "ligand displacement, radioligand", "Ki": "0.0933 µM"}
{"SMILES": "Clc1cc(CN2CCCC2)ccc1OCCCN1CCN(c2cccc3sccc23)CC1", "target": "D(2) dopamine receptor (Drd2, Rattus norvegicus, UniProt P61169)", "test": "cell-free assay, radioligand", "Ki": "0.101 µM"}
{"SMILES": "CC(=O)N[C@H](C(=O)N[C@H](C(=O)N[C@@H](CN)C(=O)N[C@H](C=O)CC(=O)O)C(C)C)[C@@H](C)O", "target": "CASP3", "test": "enzyme activity, inhibitor, fluorescence", "setting": "pH 7", "Ki": "37.2 µM"}
{"SMILES": "CCC(=O)NCc1cc(C(=O)NCCCC(=O)NCCCCCOc2nsnc2C2=CCCN(C)C2)cc(C(=O)NCCN2CCN(CCCCC3CCN(CC(=O)N4c5ccccc5NC(=O)c5ccccc54)CC3)CC2)c1", "target": "Muscarinic acetylcholine receptor M3 (CHRM3, Homo sapiens, UniProt P20309)", "test": "ligand displacement, radioligand", "Ki": "0.0135 µM"}
{"SMILES": "O=c1[nH]cnc2c(CNCCCP(=O)(O)O)c[nH]c12", "target": "Hypoxanthine-guanine phosphoribosyltransferase (Trypanosoma cruzi, UniProt Q4DGA3)", "Ki": "0.71 ± 0.17 µM"}
{"SMILES": "CCC(=O)NCc1cc(C(=O)NCCN2CCC(OC(=O)C(c3ccccc3)c3ccccc3)CC2)cc(C(=O)NCCN2CCN(CCCCC3CCN(CC(=O)N4c5ccccc5NC(=O)c5ccccc54)CC3)CC2)c1", "target": "CHRM5", "test": "ligand displacement, radioligand", "Ki": "0.024 µM"}
{"SMILES": "CN1CC(=O)N[C@@H](CCCNC(=N)N)C(=O)NCC(=O)N[C@@H](CS)C(=O)NCC(=O)N[C@@H](CC(N)=O)C1=O", "target": "Aminopeptidase N (ANPEP, Homo sapiens, UniProt P15144)", "test": "enzyme activity, inhibitor", "Ki": "8.9 µM"}
{"SMILES": "CC(=O)NCC(=O)N[C@@H](CCC(=O)O)C(=O)N[C@@H](CO)C(=O)N1CCC[C@H]1C(=O)N[C@H](C=O)CC(=O)O", "target": "CASP3", "test": "enzyme activity, inhibitor, fluorescence", "setting": "pH 7", "Ki": "0.186 µM"}
{"SMILES": "CC(C)C[C@H](NC(=O)[C@H](CC(C)C)NC(=O)[C@H](Cc1c[nH]cn1)NC(=O)[C@H](CC(C)C)NC(=O)[C@@H](NC(=O)[C@H](CCC(=O)O)NC(=O)[C@H](CO)NC(=O)[C@H](Cc1c[nH]c2ccccc12)NC(=O)[C@H](C)NC(=O)[C@@H](N)[C@@H](C)O)C(C)C)C(=O)N[C@@H](CO)C(=O)N[C@@H](CCCNC(=N)N)C(=O)NCC(=O)NCC(=O)NCC(=O)N[C@@H](CO)C(=O)N[C@@H](CCCCN)C(N)=O", "target": "ATP2B2 (Homo sapiens, UniProt Q01814)", "test": "Ca2+-Mg2+-ATPase activity, inhibitor", "system": "Sf9 cell microsomes", "Ki": "167 ± 67 µM"}
{"note": "For quick reference, copied from above:"}
{"SMILES": "CC(CCC(=O)NC(CCC(=O)Nc1cccc(N)n1)C(=O)O)C1CCC2C3C(O)CC4CC(O)CCC4(C)C3CCC12C (stereo not drawn)", "target": "SLC10A2", "test": "taurocholate uptake, inhibitor", "system": "ASBT-MDCK", "setting": "10 min, added: taurocholate 2.5 µM", "Ki": "13.2 µM"}
